Experimental data of several laboratories.
Each line is one published result; not all experiments were run side by side. Numbers after ± are the reported error.

| SMILES | cell line | test | system | conditions | IC50 |
| --- | --- | --- | --- | --- | --- |
| C=C(C)C(O)COc1c2occc2cc2ccc(=O)oc12 (stereo not drawn) | NIH3T3 | cell growth or viability, MTT |  | 24 h | 54.8 µM |
| O=C(Nc1ccc2c(c1)CN(c1ccccc1)C2=O)N1CCN(c2ccc(F)cc2)CC1 | primary peritoneal mouse macrophages | cytotoxicity | 5% fetal calf serum |  | > 64 µM |
| CCCCn1cc(C(=O)O)c(=O)c2cc(F)c3[nH]nnc3c21 | SW480 | cell growth or viability, SRB |  |  | 165 µM |
| CSc1ncc(-c2cc(-c3ccc4c(c3)OCO4)[nH]c(=N)c2C#N)n1Cc1ccccc1 | HT-29 | cell growth or viability, MTT |  | 24 h | > 130 µM |
| COc1cc(O)c(-c2cc(-c3c(C)cc(O)c4c(OC)ccc(-c5c(O)cc(OC)c6c5C[C@@H](C)N(C)[C@@H]6C)c34)c(O)c3c(OC)cc(C)cc23)c2c1[C@@H](C)N(C)[C@H](C)C2 | L6 | cytotoxicity |  |  | 6.64 µM |
| O=C(Nc1ccc2c(c1)CN(c1ccc(Cl)c(Cl)c1)C2=O)N1CCN(c2ccc(Cl)cc2)CC1 | primary peritoneal mouse macrophages | cytotoxicity | 5% fetal calf serum |  | > 64 µM |
| Oc1ccccc1/C=N/NC(=S)Nc1cccc(C(F)(F)F)c1 | HUVEC | cell growth or viability, CCK-8 |  | 24 h | 8.07 µg/mL |
| Cc1cc(=O)c2c(O)c3c(O[C@@H]4O[C@H](CO)[C@@H](O)[C@H](O)[C@H]4O)cc(O)cc3cc2o1 | HK-2 in HepaRG co-culture | cell viability, MTT |  | 48 h | 391 µM |
| CNC(=O)c1c(C)oc2cc(Oc3ncnc4cc(OC)c(OCCCCCCC(=O)NO)cc34)ccc12 | HUVEC | cytotoxicity, CellTiter-Glo |  | 72 h, 10% FBS | 3.43 µM |
| O=C(Nc1ccc2c(c1)CN(c1ccc(Br)cc1)C2=O)N1CCN(c2ccc(F)cc2)CC1 | primary peritoneal mouse macrophages | cytotoxicity | 5% fetal calf serum |  | 32 µM |
| O=C1C=C(c2coc3cc(O)cc(O)c3c2=O)C(=O)C([N+](=O)[O-])=C1O | HT-29 | cytotoxicity, MTT |  | 72 h | inactive |
| CC(=O)[O-].Nc1ccc(C([O-])=NN=Cc2ccc(OCC(=O)Nc3ccc(Cl)cc3)cc2)cc1.[Co+2] | HeLa | cytotoxicity, MTT |  | 24 h | 19.7 ± 2 µM |
| O=C(Nc1ccc2c(c1)CN(c1ccc(F)c(F)c1)C2=O)N1CCN(c2ccc(F)cc2)CC1 | primary peritoneal mouse macrophages | cytotoxicity | 5% fetal calf serum |  | 32 µM |
| CSc1ncc(-c2cc(-c3ccc(Br)cc3)[nH]c(=O)c2C#N)n1Cc1ccccc1 | HT-29 | cell growth or viability, MTT |  | 24 h | > 130 µM |
| O=C(Nc1ccc2c(c1)CN(c1ccccc1)C2=O)N1CC[C@H](O)C1 | primary peritoneal mouse macrophages | cytotoxicity | 5% fetal calf serum |  | > 64 µM |
| COc1cc(O)c(-c2ccc(OC)c3c(O)cc(C)c(-c4cc(-c5c(O)cc(OC)c6c5C[C@@H](C)N[C@@H]6C)c5cc(C)cc(OC)c5c4O)c23)c2c1[C@@H](C)N(C)[C@H](C)C2 | L6 | cytotoxicity |  |  | 6.68 µM |
| O=C(Nc1ccc2c(c1)CN(c1ccc(Cl)cc1)C2=O)N1CC[C@H](F)C1 | primary peritoneal mouse macrophages | cytotoxicity | 5% fetal calf serum |  | > 64 µM |
| CCCCn1cc(C(=O)O)c(=O)c2cc(F)c(N)c([N+](=O)[O-])c21 | SW480 | cell growth, SRB |  | 72 h | 294 ± 39.3 µg/mL |

Excerpt of the above:
| SMILES | cell line | test | system | conditions | IC50 |
| --- | --- | --- | --- | --- | --- |
| CSc1ncc(-c2cc(-c3ccc(Br)cc3)[nH]c(=O)c2C#N)n1Cc1ccccc1 | HT-29 | cell growth or viability, MTT |  | 24 h | > 130 µM |
| O=C(Nc1ccc2c(c1)CN(c1ccc(Br)cc1)C2=O)N1CCN(c2ccc(F)cc2)CC1 | primary peritoneal mouse macrophages | cytotoxicity | 5% fetal calf serum |  | 32 µM |
| COc1cc(O)c(-c2ccc(OC)c3c(O)cc(C)c(-c4cc(-c5c(O)cc(OC)c6c5C[C@@H](C)N[C@@H]6C)c5cc(C)cc(OC)c5c4O)c23)c2c1[C@@H](C)N(C)[C@H](C)C2 | L6 | cytotoxicity |  |  | 6.68 µM |
